Experimental data gathered from unrelated publications.
A part holds a random share of what one study measured.
Chain of UniProt O75914 (whole entry, looked up): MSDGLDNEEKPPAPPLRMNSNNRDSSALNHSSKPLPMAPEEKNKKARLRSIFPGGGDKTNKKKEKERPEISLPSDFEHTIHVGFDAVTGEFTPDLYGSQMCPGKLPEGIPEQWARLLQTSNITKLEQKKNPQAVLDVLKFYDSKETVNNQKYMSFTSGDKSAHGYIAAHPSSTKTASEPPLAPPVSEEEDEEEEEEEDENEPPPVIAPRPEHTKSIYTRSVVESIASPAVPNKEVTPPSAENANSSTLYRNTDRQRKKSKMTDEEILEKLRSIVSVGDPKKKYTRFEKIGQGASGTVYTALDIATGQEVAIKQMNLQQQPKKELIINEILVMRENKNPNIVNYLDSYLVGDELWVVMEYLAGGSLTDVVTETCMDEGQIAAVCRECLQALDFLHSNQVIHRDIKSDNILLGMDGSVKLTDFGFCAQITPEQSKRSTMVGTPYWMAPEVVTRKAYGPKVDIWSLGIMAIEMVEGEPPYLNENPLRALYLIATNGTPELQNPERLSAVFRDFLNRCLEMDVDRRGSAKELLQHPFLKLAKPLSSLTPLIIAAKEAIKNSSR
Chain of UniProt P31751 (whole entry, looked up): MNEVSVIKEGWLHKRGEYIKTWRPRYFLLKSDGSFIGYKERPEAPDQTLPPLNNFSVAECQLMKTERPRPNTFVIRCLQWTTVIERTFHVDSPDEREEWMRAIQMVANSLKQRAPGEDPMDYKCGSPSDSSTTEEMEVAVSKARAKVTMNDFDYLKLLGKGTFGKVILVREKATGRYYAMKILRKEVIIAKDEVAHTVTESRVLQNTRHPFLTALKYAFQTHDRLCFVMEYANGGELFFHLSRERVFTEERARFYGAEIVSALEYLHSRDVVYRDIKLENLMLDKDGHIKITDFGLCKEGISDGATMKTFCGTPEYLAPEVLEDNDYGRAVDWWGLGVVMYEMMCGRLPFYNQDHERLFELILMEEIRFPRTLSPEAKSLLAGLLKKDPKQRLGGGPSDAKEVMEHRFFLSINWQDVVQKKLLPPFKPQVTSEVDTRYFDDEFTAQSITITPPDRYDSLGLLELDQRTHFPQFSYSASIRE
Chain of UniProt Q13233 (whole entry, looked up): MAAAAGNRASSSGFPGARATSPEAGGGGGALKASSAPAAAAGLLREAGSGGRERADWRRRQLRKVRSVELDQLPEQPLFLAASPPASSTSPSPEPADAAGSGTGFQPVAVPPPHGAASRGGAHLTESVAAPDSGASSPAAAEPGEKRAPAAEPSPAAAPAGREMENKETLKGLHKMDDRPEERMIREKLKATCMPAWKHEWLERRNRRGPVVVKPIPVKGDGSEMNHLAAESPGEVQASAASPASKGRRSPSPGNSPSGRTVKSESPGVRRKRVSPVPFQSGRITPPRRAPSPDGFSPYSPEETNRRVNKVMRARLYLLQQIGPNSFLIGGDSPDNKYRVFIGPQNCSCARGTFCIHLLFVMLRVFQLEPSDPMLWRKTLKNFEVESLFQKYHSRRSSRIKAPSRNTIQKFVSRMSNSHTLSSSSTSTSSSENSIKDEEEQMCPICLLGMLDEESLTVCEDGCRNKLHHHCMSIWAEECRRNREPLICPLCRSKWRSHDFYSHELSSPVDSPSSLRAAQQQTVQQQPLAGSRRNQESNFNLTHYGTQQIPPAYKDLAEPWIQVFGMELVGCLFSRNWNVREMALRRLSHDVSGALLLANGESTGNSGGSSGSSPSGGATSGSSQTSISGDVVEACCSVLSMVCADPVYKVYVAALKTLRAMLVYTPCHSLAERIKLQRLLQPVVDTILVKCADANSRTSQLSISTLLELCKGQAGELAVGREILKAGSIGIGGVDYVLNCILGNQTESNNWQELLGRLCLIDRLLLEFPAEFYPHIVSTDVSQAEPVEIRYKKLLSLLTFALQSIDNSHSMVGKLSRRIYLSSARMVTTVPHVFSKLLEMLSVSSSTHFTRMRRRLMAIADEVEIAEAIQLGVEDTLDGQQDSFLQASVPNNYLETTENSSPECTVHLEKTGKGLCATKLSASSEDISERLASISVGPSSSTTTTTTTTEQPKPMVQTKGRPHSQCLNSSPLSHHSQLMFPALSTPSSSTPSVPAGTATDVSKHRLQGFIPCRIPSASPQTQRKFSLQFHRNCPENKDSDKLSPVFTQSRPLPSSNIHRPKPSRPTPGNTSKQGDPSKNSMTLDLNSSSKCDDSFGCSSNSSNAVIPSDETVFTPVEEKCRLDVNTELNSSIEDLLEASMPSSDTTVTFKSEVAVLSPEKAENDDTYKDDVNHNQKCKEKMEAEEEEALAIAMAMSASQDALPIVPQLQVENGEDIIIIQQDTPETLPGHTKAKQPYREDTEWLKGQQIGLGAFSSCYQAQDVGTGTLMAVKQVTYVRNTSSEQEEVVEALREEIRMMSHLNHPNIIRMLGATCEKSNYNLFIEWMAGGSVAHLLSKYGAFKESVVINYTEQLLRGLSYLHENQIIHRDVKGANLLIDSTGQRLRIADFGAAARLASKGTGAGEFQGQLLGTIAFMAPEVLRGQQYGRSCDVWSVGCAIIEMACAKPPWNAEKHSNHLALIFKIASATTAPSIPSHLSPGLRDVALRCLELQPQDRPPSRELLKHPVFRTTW
Chain of UniProt P28482 (whole entry, looked up): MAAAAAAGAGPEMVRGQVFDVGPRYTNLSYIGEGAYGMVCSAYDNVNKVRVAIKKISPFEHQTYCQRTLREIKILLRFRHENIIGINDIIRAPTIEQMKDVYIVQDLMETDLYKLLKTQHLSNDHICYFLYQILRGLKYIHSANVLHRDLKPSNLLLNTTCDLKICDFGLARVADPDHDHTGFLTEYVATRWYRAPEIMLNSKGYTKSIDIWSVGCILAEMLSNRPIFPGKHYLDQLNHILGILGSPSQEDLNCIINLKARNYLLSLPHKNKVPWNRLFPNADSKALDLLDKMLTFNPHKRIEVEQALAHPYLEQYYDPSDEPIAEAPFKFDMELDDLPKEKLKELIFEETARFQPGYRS
Chain of UniProt P27448 (whole entry, looked up): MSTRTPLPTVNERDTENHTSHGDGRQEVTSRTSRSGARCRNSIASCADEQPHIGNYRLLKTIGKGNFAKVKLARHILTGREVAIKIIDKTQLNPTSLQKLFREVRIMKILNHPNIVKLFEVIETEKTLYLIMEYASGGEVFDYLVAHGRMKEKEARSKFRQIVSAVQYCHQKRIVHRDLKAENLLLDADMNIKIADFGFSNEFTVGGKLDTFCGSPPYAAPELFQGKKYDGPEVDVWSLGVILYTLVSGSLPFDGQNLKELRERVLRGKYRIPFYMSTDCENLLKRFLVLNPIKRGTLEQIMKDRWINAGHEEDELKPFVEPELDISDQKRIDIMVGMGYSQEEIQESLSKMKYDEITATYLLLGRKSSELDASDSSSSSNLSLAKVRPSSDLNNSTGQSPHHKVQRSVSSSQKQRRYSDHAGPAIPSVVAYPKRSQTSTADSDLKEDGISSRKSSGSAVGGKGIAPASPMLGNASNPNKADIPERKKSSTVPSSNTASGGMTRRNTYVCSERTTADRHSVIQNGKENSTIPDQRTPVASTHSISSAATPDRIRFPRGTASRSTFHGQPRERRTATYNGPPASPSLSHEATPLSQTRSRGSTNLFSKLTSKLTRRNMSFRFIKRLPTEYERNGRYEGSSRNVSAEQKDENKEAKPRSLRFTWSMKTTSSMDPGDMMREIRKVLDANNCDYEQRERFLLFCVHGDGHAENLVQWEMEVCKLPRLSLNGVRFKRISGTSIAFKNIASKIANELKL
Chain of UniProt O15530 (whole entry, looked up): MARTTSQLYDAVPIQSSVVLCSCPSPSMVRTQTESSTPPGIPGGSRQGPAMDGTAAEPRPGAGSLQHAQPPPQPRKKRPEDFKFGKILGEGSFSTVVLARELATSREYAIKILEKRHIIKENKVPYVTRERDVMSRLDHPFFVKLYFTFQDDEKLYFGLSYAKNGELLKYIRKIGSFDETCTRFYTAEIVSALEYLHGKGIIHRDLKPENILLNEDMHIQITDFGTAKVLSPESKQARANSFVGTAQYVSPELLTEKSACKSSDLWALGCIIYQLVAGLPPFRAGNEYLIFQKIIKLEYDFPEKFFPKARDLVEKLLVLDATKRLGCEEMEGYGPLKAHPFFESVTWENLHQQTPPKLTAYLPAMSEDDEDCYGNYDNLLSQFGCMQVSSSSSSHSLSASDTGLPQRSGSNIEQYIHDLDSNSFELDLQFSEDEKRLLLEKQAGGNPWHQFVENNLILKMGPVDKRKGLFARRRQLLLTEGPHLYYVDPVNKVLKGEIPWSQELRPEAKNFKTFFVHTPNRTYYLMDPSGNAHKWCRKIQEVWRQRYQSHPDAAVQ
Chain of UniProt P06493 (whole entry, looked up): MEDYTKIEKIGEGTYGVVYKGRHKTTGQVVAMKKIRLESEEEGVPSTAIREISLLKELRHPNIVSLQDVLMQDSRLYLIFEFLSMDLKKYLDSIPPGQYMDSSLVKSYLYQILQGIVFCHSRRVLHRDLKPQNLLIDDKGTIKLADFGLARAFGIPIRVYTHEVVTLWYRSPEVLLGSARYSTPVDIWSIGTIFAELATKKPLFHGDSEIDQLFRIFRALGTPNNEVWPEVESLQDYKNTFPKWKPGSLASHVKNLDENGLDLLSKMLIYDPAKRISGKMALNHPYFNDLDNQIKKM
Chain of UniProt P50750 (whole entry, looked up): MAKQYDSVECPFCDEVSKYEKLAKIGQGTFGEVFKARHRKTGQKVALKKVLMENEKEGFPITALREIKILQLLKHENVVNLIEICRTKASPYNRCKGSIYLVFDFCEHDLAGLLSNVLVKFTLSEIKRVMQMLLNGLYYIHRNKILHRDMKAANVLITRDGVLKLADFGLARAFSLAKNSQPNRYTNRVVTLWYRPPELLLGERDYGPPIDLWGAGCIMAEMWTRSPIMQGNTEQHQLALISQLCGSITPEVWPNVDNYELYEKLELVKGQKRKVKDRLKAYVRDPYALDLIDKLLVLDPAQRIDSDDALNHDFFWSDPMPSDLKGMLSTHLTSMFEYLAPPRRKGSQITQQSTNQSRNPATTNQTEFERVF

Sample 1
Cell line: mouse MPNST tumor cells
Technique: high-content nuclear imaging
Item: cell number
Concentration: 10 µM
Time: 12 h
Setting: mean of 2 replicates
Baseline: plate mean
Reading: higher = more cells
Quantity: nuclei count
SMILES = O=c1ncn2nc(Sc3ccc(F)cc3F)ccc2c1-c1c(Cl)cccc1Cl; value = 2.07 z-score
SMILES = NC(=O)N/N=C/c1ccc([N+](=O)[O-])o1; value = -0.409 z-score
SMILES = S=c1[nH]cnc2nc[nH]c12; value = -0.356 z-score
SMILES = O=C(c1cc2c(s1)CCCCC2)N1CCC(n2c(=O)[nH]c3ccccc32)CC1; value = 1.28 z-score
SMILES = O=Nc1c(O)[nH]c2c(Cl)c(Cl)ccc12; value = 0.901 z-score
SMILES = O=C1N(c2ccccc2)c2ccccc2C1(Cc1ccncc1)Cc1ccncc1; value = 1.69 z-score

Sample 2
SMILES: CCc1[nH]c(-c2ccc(OC)cc2)nc1-c1ccncc1
Read-out: enzyme activity
Mode: inhibitor
Concentration: 0.5 µM
Baseline: control
Quantity: remaining activity
target = PRKG2 (Homo sapiens, UniProt Q13237); value = 91.9%
target = Cyclin-dependent kinase 1, with cyclin A (CDK1, Homo sapiens, UniProt P06493); value = 91.8%
target = TXK (Homo sapiens, UniProt P42681); value = 100%
target = MAPK1 (Homo sapiens, UniProt P28482); value = 97.2%
target = AKT2 (Homo sapiens, UniProt P31751); value = 100%
target = CAMK4 (Homo sapiens, UniProt Q16566); value = 97.5%
target = CLK4 (Homo sapiens, UniProt Q9HAZ1); value = 99.3%
target = DCLK2 (Homo sapiens, UniProt Q8N568); value = 103%
target = Cyclin-dependent kinase 9, with cyclin K (CDK9, Homo sapiens, UniProt P50750); value = 97.9%
target = Myosin-IIIb (MYO3B, Homo sapiens, UniProt Q8WXR4); value = 107%
target = GRK4 (Homo sapiens, UniProt P32298); value = 99.3%
target = PLK3 (Homo sapiens, UniProt Q9H4B4); value = 96.9%
target = PAK3 (Homo sapiens, UniProt O75914); value = 103%
target = MET (Homo sapiens, UniProt P08581); value = 97.7%

Sample 3
SMILES: O=C(Nc1ccccc1)Nc1cccc(Oc2ccc3nccn3n2)c1
Technique: competitive binding panel
Concentration: 1 µM
Baseline: vehicle
Quantity: remaining binding
target = PIK3CA (Homo sapiens, UniProt P42336, E542K); value = 99%
target = STK24 (Homo sapiens, UniProt Q9Y6E0); test = item: MST3; value = 97%
target = AKT2 (Homo sapiens, UniProt P31751); value = 100%

Sample 4
SMILES: CCC(=O)N[C@H]1CC[C@@H](C(=O)N(C)c2ccc(-c3nc4ccccc4o3)cc2)C1
Read-out: cell-free assay
Technique: competition with immobilised ligand
Concentration: 1 µM
Quantity: remaining binding
target = PRKACB (Homo sapiens, UniProt P22694); value = 100%
target = PAK3 (Homo sapiens, UniProt O75914); value = 98%
target = MAST1 (Homo sapiens, UniProt Q9Y2H9); value = 100%
target = PDPK1 (Homo sapiens, UniProt O15530); value = 90%
target = MAP3K1 (Homo sapiens, UniProt Q13233); value = 73%
target = MARK3 (Homo sapiens, UniProt P27448); value = 96%
target = SRMS (Homo sapiens, UniProt Q9H3Y6); value = 89%
